Experimental data collected from several papers.
Parts stem from different laboratories: compare values within a part only. Positions count from the first letter of the parent shown.

Study 1
Target: Ras GTPase-activating protein-binding protein 1, C-terminal RGG region (G3BP1, Homo sapiens, UniProt Q13283)
Sequence of UniProt Q13283 (whole entry, looked up): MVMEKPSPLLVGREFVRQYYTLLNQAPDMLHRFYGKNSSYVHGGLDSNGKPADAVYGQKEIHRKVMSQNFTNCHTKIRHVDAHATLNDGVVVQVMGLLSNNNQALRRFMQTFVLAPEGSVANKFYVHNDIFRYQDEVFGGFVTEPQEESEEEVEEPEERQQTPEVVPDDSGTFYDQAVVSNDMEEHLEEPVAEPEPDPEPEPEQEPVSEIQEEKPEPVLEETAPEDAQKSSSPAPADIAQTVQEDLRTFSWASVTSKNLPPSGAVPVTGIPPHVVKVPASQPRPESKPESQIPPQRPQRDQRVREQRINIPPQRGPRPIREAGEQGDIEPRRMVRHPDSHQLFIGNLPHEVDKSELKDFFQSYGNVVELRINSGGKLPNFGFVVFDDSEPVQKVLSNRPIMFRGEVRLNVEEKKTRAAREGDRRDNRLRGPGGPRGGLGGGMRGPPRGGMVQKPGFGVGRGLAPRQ
Method: RNA Bind-n-Seq
Form: RNA
Sample: in vitro
Tested at: 1 µM
Setting: whole 134-nt RNA, ends assumed
With: 150 mM KCl
Relative to: input library
Reading: higher = stronger binding
Oligonucleotide | log2 enrichment
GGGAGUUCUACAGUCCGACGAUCACCAUGCAGGUGGGCAUCUUUGGGAAGUGGGGCAAGGGGGGGAUAGGGAGGGGGGUAACACUUUGGGAACAGGUAAACCCAGGUCGUUUCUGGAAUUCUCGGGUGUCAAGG | -0.883
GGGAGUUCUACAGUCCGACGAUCGUCCUGUGCUACACAUCGUAUGUACCGAAUCGGGGUUUGGGGAAAGGGGUUUUUGGGGAAAGUAUUAUGUUACGCCGUUCGGAUCUGCACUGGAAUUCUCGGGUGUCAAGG | 3.27
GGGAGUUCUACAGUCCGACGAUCGCAGGAAGUAAAAACAAAUGGAAAUGCUUCGGAAAGUGGCAGGGGUGGGGGUUGCUAAGGAAAGGGUGGGAUGGGAGUGGGUAAAGAGUUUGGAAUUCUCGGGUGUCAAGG | 2.09
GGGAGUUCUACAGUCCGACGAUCAGUCCUGUGCUACACAUCGUAUGUACCGAAUCGGGAAAAAAAGGGUGGGAAAAAGGGAAAGUAUUAUGUUACGCCGUUCGGAUCUGCACUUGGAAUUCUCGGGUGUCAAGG | 0.501
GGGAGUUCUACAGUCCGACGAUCUGGUGGACCCGCAGCAGCUGGGCAUGUUCACGGAGGGCGAGCUGAUGUCGGUGGGUAUGGACACGUUCAUCCACCGCAUCGACUCCACCGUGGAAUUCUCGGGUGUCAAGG | -1.64
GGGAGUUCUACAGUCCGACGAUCGCAGGAAGUAAAAACAAAUGGAAAUGCUUCGGAUAGUGGCAGGGGUGGGGGUUGCUAAGGAAUGGGUGGGAUGGGAGUGGGUAAAGAGUUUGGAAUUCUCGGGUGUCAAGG | 1.57
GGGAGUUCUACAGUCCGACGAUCAAGUCCUGUGCUACACAUCGUAUGUACCGAAUCGGGGUUUGGGGUUUGGUUUGGGGAAAGUAUUAUGUUACGCCGUUCGGAUCUGCACUUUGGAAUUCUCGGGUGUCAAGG | -0.608
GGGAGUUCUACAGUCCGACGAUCCAAGUCCUGUGCUACACAUCGUAUGUACCGAAUCGGUUUGGUUUGGAAAAAAAGGAAAGUAUUAUGUUACGCCGUUCGGAUCUGCACUUCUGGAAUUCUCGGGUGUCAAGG | -1.8
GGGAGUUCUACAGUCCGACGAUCAGUCCUGUGCUACACAUCGUAUGUACCGAAUCGGAAAAAGGUUUUUUUGGAAAAAGGAAAGUAUUAUGUUACGCCGUUCGGAUCUGCACUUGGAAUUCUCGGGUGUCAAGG | -2.62
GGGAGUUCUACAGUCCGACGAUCUCCUCAAGUCCUGUGCUACACAUCGUAUGUACCGAAUCGGGAGGAGGAGGGAAAGUAUUAUGUUACGCCGUUCGGAUCUGCACUUCCAGCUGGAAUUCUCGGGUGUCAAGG | -1.18

Study 2
Target: RNA binding protein fox-1 homolog 2, RRM domain, GST-SBP tag (RBFOX2, Homo sapiens, UniProt O43251-10, residues 100-194)
Method: RNA Bind-n-Seq
Form: RNA
Sample: in vitro
Tested at: 365 nM
Setting: natural RNA segment, single round, ends assumed
Relative to: no-protein control
Reading: higher = stronger binding
Construct (chain): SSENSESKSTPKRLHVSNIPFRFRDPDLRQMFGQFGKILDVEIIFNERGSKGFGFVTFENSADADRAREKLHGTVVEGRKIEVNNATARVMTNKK
Oligonucleotide | RBNS enrichment (R)
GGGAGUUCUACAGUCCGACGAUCCAGCCGGAAGGCCAGCGCCUGGGAUGGAGCCAGCAGAACCCCAUGCCGAGGUCCAGGAGGCCUUGCCUGCUCUUCAUCUGCCUGCGAGCUGUAGGACCUGCAUGGGAAAUUGGAAUUCUCGGGUGCCAA | 2.16
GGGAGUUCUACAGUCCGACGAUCGUAGCAGUUGUCAUAGACUAAUCAUAAAAUAUUUUGCACAAAAUUUCAAUGUUGAACUUGCACUUACUGUUGUUAUAGUAAAUUAUAAAUCACAGCUUCUAGCUAGGCCAUGGAAUUCUCGGGUGCCAA | 0.393
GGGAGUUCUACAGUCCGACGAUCCCCACAAAAGACUCAACAAAAUUAGACCACAAAAUUUGCAUUGUUCAUUGUAGCACUAUUGGUAAUAAAAGAACAGAUGUUUGUGCAUUUUUAUGUGAAGAUCCUUCUCGUGGAAUUCUCGGGUGCCAA | 0.795
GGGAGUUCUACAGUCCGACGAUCUUUUUUCUCUUCUUUUUUAAAAGAUAGGUAGGGUCUUGCUAGAUAUCUCUAGCAAGCCUGUUUCUUGUCAGGUAGCCCAGGAUGGCCUUGAACUCUUAAUCCUCCGCCUUUGGAAUUCUCGGGUGCCAA | 0.367
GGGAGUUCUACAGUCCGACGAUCCUUUCAUCCCUCCUUCUAGGGCCUAUGGCAGUUCUCCCAGGAUGUGUGGCGAGAGCCUGGGCCAGCCCACAGCGUUCCUAGUCAGGCAGCCACACCUUGGUCCUCAUCUUUGGAAUUCUCGGGUGCCAA | 0.804
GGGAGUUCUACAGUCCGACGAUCGAACCUCUUAAAGGACAACUUUGAUUUCCUUCUUCGUGUGAAGAUGCUGGAUAGUACCCAAAUCACUUAAAACCUGUUUCCAUUCGCUUUUUACUUAAAAAUAAACAUUUUGGAAUUCUCGGGUGCCAA | 0.271
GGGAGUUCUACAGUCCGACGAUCAGGCAUCUUGACAUCUUGGCAACUGCCUAGUUAAUGCCAGUGGCCUGUACCAUAUUAUGGAAAACUGUUAACUGCUUAAUUGGGUAAUUUUCAAAGAAAGUAAUGUUGUUUGGAAUUCUCGGGUGCCAA | 0.392
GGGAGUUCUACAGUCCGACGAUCUGAAGGGGUCCGGUGCAUUUUAUAUUCUCUUUACAAAGGGCCUCUCUUCCACAGUUAACCAGGUCUCCACCAGGGCUUUCUUUCCAUGUGUUUUUCUUCUUGUUGUUUUAUGGAAUUCUCGGGUGCCAA | 0.92
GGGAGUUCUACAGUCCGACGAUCUCUAGUCUUACAGCUGAAAAUUGACCUCUGCCUUCCCCCAUCCCUUACUUUUUUUAGAUCCCUGUCUCCAGAAUCUCCCCGAUGCUGUUUUCUACAUCACAGGUCUCUCCUGGAAUUCUCGGGUGCCAA | 0.527
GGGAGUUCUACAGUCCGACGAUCAAGUUUGACUCGAGAAAGACGACCCUCCAGGAUUUUCAUUUGGACGAGGACAGGACCGUGAGAGUCCCCAUGAUGUCAGAUCCUAAGGCCAUCUUACGAUACGGCUUGGAUGGAAUUCUCGGGUGCCAA | 0.818
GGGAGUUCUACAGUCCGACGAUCUUUGGUUGUUUGUGCAAUAUUAUAUAUUUUAAAUUAUAAUGCAUCUCCCCAGAGUAUUUUGUAGCUGGGAAAAGAAAAAAAAAGUAAAGAAAAAAUUCUAACAGCUGUUAUGGAAUUCUCGGGUGCCAA | 2.67
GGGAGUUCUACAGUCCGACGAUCUCCCAGCUGUCCUAGUGUCAAUAAAGCAUUGUGUGUAAAUGUUCUUCUUGCAUUCUUUCUAAGCAGUCAGCAAGUAUUUAUUAAAUGCUUUAAGGAAAACAAUAAUAGAGUGGAAUUCUCGGGUGCCAA | 0.591

Study 3
Target: Histone acetyltransferase KAT6A, both winged helices, GST fusion (KAT6A, Homo sapiens, UniProt Q92794, residues 1-181)
Method: protein binding microarray
Form: double-stranded DNA, one strand shown
Sample: in vitro
Tested at: not given
Setting: 8-mer, flanks averaged, mean of 2 arrays, mostly near background
Relative to: not given
Reading: higher = stronger binding
Residues (chain): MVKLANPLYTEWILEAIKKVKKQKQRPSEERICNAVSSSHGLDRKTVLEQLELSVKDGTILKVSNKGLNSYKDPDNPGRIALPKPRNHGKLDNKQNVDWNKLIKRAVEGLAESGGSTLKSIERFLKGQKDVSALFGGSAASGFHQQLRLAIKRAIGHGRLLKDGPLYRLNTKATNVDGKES
Oligonucleotide | E-score
CCGATACG | 0.203
ATATGAGA | -0.088
GCCCGTCC | 0.213
AACGCAAC | -0.0672
ACTCCGTA | 0.245
CAGAGGGA | -0.12
GATTCCGA | 0.176
AACGGACC | 0.124
GAGCTGAA | -0.229
AATGTCTG | -0.0757
AATCTCCG | 0.123
AAAAACAC | 0.00783
AAAATACA | -0.0401
GCATTACC | 0.044
AGGGGCAC | -0.134
ACCAAAAT | -0.0559
CGGGACGA | 0.091
AGTCCCAG | -0.0474
ACGGCCTA | 0.211
CTATTGGA | -0.0818
TCGTCGAA | -0.0759
GGGTCGAC | -0.0117
ATGGAGTA | -0.213

Study 4
Target: CCNB1, cyclin fold, Cln2 fusion (human)
Method: yeast growth competition, sequencing
Sample: yeast
Setting: strong parent motif
Relative to: not given
Reading: higher = stronger binding
Starting sequence: RBL2 docking peptide (human); STTRRRLFVENDS
Variant | normalised enrichment score
V9F | 1.64
L7F | 0.675
T2F | -0.0894
S13Q | 0.47
R5V | 0.735
R5D | 0.0635
S1Y | 1.06
S13Y | 1.22
N11M | 1.11
S1T | 0.798
E10N | 0.491
N11D | 2.06
R4T | 0.896
L7Y | -0.144
D12W | 0.983
S1F | 1.37
R6M | 0.822

Some of these lines once more (study 4):
Variant | normalised enrichment score
E10N | 0.491
S13Y | 1.22
N11M | 1.11
R4T | 0.896
R5V | 0.735
